# Measured values gathered from unrelated publications.
# Sequences of proteins named here, by UniProt entry; tags and fusion partners are left off. Residues count along the entry.
# UniProt P9WPP7, whole entry: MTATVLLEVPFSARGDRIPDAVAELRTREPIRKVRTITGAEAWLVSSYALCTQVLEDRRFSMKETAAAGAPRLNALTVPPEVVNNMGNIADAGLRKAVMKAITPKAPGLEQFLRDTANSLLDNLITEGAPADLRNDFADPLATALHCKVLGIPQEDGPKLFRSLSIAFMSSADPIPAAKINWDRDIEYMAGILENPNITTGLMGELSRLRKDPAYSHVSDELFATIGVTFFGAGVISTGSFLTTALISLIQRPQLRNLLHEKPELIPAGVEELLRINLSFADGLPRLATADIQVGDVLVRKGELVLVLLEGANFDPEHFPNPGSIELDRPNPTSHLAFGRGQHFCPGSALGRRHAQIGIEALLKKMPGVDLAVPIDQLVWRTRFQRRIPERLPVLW
# UniProt P00784, 134-345 limits assumed: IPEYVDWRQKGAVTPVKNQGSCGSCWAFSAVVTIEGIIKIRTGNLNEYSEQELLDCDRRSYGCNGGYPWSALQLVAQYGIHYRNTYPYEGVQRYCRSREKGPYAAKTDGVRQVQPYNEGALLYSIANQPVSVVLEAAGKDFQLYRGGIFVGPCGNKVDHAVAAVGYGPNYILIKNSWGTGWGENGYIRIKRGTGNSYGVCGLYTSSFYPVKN
# UniProt P14867, whole entry, looked up: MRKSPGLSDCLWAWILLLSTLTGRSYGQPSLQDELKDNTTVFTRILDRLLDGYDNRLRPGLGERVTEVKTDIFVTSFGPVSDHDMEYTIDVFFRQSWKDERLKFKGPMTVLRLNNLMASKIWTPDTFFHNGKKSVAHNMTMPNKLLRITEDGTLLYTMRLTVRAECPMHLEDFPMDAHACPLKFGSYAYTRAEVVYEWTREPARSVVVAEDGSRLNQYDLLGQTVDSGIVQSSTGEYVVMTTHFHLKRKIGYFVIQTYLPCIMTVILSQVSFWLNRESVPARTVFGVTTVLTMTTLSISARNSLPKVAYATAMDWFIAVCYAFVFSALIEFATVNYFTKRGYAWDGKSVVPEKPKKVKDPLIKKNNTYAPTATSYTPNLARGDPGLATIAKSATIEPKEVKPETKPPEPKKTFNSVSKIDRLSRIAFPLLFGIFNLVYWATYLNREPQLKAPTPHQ
# UniProt P28472, whole entry, looked up: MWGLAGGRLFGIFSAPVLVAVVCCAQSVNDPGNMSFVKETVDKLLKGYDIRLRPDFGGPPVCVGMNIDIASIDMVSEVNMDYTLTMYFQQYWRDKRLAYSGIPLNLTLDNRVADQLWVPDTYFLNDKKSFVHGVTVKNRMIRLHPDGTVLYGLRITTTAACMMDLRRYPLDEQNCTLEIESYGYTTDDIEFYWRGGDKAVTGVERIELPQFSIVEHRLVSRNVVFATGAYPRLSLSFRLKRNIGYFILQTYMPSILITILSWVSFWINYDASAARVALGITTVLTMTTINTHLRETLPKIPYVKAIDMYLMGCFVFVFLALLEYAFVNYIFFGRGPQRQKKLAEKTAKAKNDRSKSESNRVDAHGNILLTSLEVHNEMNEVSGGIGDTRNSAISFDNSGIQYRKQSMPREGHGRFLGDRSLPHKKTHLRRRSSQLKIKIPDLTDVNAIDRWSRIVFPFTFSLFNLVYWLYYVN
# UniProt P62593, 24-286 limits assumed: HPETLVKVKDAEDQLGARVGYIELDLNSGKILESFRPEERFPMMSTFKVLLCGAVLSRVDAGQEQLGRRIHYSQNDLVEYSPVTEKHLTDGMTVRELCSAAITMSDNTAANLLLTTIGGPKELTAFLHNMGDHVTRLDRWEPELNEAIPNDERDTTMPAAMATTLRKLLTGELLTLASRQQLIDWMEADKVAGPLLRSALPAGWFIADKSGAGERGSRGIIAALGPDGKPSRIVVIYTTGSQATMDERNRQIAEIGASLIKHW
# UniProt P00533, 25-1210 limits assumed: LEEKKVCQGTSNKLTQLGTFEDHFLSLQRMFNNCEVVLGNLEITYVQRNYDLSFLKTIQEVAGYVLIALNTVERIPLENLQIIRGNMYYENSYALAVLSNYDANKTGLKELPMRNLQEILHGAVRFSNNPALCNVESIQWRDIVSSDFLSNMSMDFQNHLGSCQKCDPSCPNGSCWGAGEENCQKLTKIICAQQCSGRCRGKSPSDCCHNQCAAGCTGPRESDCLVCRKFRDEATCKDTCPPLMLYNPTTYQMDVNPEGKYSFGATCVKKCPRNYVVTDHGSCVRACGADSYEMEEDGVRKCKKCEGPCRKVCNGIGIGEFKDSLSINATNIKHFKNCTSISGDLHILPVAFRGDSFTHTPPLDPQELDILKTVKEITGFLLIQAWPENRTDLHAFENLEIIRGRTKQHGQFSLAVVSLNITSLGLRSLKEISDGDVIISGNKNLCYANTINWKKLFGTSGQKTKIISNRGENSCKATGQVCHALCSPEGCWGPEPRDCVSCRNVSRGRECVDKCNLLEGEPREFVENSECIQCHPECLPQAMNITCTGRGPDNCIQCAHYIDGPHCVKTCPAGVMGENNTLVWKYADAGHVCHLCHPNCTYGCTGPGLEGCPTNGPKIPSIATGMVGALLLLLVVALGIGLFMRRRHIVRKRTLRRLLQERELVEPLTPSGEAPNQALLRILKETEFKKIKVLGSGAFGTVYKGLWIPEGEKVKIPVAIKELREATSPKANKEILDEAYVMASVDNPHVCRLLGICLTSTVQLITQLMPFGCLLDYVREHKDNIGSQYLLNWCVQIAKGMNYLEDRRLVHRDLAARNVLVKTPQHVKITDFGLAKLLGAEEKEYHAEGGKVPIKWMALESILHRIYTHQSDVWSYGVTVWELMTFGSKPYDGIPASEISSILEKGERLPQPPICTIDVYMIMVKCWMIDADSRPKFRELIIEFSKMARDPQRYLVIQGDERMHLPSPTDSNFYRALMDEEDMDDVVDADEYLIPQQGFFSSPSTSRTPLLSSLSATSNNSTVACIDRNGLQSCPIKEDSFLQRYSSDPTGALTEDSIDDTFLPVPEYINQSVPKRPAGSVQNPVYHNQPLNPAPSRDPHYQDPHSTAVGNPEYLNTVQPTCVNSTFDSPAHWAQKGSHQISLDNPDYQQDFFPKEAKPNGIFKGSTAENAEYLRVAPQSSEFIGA
# UniProt P12931, whole entry: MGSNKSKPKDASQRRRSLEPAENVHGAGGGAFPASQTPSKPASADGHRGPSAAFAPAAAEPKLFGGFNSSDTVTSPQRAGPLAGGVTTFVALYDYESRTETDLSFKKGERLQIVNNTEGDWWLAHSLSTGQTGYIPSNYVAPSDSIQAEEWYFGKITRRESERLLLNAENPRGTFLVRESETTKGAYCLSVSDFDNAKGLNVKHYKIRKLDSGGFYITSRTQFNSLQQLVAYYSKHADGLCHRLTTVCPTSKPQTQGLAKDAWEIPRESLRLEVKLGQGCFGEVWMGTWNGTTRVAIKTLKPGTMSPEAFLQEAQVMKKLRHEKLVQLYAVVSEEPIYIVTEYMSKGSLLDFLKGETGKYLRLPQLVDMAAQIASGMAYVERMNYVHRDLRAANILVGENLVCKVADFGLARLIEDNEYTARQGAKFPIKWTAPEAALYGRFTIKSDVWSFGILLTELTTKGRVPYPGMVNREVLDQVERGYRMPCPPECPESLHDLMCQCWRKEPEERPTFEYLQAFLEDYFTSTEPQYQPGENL
# UniProt Q8I719, whole entry T618Q: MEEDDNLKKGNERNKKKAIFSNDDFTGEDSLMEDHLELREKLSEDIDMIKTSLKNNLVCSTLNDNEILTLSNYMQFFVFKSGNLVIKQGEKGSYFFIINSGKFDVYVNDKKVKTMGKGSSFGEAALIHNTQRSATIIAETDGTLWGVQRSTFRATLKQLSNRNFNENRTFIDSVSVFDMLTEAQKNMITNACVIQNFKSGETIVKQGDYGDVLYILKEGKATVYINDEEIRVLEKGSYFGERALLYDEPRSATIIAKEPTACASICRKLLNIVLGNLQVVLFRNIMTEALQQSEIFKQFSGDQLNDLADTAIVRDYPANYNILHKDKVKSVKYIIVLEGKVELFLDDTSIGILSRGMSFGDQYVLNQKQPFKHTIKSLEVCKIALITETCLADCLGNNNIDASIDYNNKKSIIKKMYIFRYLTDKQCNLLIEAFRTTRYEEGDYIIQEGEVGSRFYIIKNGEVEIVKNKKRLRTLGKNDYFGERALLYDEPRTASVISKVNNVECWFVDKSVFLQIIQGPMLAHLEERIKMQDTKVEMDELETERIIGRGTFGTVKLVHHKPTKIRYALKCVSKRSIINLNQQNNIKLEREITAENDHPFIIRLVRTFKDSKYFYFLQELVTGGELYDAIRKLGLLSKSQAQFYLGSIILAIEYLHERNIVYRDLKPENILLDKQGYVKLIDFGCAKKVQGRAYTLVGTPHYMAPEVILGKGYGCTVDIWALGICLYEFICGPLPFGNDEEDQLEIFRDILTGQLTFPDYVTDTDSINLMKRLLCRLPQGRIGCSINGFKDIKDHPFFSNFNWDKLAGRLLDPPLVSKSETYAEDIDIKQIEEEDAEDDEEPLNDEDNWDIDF
# UniProt P46098, 24-478 limits assumed: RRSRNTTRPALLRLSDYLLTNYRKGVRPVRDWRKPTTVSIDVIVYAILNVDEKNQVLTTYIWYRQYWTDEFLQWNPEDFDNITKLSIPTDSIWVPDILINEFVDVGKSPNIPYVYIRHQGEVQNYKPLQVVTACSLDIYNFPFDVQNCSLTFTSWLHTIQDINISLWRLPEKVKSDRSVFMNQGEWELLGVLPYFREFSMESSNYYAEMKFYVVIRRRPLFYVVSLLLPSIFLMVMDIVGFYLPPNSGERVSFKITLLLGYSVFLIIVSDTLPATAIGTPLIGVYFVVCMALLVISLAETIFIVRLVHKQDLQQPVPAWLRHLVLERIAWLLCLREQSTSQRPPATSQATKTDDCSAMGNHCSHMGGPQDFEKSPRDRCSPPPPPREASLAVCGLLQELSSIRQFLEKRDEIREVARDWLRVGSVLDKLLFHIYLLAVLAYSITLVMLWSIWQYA
# UniProt P31645, whole entry: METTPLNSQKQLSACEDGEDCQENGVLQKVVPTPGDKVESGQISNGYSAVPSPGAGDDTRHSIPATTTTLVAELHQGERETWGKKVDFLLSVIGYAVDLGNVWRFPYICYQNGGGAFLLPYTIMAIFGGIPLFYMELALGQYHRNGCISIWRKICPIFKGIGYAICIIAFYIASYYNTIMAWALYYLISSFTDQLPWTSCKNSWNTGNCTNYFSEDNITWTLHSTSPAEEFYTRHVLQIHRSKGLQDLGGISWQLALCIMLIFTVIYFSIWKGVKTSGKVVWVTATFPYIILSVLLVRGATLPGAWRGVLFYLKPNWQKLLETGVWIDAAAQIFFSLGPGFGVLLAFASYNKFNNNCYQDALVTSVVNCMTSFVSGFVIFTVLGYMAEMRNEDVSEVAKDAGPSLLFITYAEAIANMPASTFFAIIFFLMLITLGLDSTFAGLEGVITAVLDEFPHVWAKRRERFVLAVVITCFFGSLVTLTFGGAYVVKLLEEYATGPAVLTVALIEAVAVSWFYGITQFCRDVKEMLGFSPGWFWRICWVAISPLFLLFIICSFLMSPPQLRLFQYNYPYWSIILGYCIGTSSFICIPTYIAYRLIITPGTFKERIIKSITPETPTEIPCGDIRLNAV
# UniProt P04406, whole entry: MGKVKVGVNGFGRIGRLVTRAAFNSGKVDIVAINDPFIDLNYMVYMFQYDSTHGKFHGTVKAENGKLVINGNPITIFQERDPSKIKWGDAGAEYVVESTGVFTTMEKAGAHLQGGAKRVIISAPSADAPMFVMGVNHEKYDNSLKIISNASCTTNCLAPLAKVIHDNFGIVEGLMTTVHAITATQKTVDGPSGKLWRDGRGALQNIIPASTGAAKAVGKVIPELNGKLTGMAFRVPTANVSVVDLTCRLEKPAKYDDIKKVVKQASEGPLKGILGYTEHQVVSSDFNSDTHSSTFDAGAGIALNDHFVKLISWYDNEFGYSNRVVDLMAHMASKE
# Each line is one published result; not all experiments were run side by side. Numbers after ± are the reported error.
# cyp121: Mycocyclosin synthase (cyp121, Mycobacterium tuberculosis, UniProt P9WPP7)
# Papain: Papain (Carica papaya, UniProt P00784)
SMILES,target,assay,system,conditions,measurement,value
Fc1ccc(-c2ccc3c(c2)CCC3n2ccnc2)cc1 (stereo not shown),cyp121,binding,,,Kd,7.3 ± 1.8 µM
O=C1NC(=O)C2(Cc3ccccc32)N1 (racemic),"GABA-A receptor alpha-1/beta-3, with gamma-2 subunit (GABRA1/GABRB3, Homo sapiens, UniProt P14867+P28472)","etomidate-enhanced [3H]muscimol binding, inhibitor",,300 µM,inhibition,65%
CCC(c1ccc(-c2ccc3sccc3c2)cc1)n1ccnc1 (stereo not shown),cyp121,binding,,,Kd,2.7 ± 0.52 µM
CCNC(=O)C(=O)[C@H](Cc1ccccc1)NC(=O)[C@H]1CCC(=O)N1Cc1ccccc1,Papain,"enzyme activity, inhibitor",,1 µM,inhibition,0%
O=C(Oc1nsnc1N1CCCCC1)N1CCOCC1,"Beta-lactamase TEM (bla, Escherichia coli, UniProt P62593)","inhibitor, nitrocefin hydrolysis",,up to 300 µM,inhibition,no inhibition
O=C(CCl)Nc1ccc2c(Nc3ccccc3)ncnc2c1,"EGFR (Homo sapiens, UniProt P00533)","kinase activity, inhibitor, kinase panel",,300 nM,inhibition,inhibited
CC(C)C(C(=O)N(Cc1ccc(C2CCCCC2)cc1)c1ccc(C(=O)O)cc1)N(C)S(=O)(=O)c1c(F)c(F)c(F)c(F)c1F (stereo not shown),"SRC (Homo sapiens, UniProt P12931)","binding, KINOMEscan",,5 µM,inhibition,36%
CS(=O)(=O)Cc1onc(-c2cccc(Cl)c2)c1-c1ccnc(N[C@@H]2CCN(Cc3nccs3)C2)n1,"cGMP-dependent protein kinase (PKG, Plasmodium falciparum, UniProt Q8I719, T618Q)","kinase activity, inhibitor, IMAP",,"10 µM, gatekeeper mutant",inhibition,0 ± 0.5%
O=C(NCc1ccc(F)cc1)C(=O)[C@H](Cc1ccccc1)NC(=O)[C@H]1CCC(=O)N1Cc1ccc(F)cc1,Papain,"enzyme activity, inhibitor",,1 µM,inhibition,27.3%
N=C(N)NCCC[C@H](NC(=O)c1ccccc1)C(=O)N[C@@H](CCCCN)C(=O)N[C@@H](C(N)=O)c1ccc(OCc2ccccc2)cc1,"Genome polyprotein, NS2B-NS3 protease (dengue virus type 2, UniProt P29990)","enzyme activity, inhibitor, FRET","dengue virus, serotype 2","50 µM, with: substrate 50 µM",inhibition,100 ± 3%
COc1ccc(CN[C@@H]2CO[C@H](C(c3ccccc3)c3ccccc3)C[C@H]2O)cc1,"HTR3A (Homo sapiens, UniProt P46098)",radioligand binding,,"10 µM, with: [3H]LY278584",inhibition,18%
CCCOC(=O)[C@@]12C[C@@H]1[C@@H](n1cnc3c(NC)nc(C#Cc4ccc(Cl)s4)nc31)[C@H](O)[C@@H]2O,"SLC6A4 (Homo sapiens, UniProt P31645)","binding, radioligand binding",HEK293,"10 µM, negative means enhanced binding, with: [3H]citalopram",inhibition,26 ± 4%
C#CCCCN1C(=O)[C@@]2(CN2[S@@+]([O-])C(C)(C)C)c2ccccc21 (stereo partly shown),"GAPDH (Homo sapiens, UniProt P04406)","enzyme activity, inhibitor",,concentration not given,inhibition,inhibited

# Excerpt of the above:
SMILES,target,assay,system,conditions,measurement,value
CCNC(=O)C(=O)[C@H](Cc1ccccc1)NC(=O)[C@H]1CCC(=O)N1Cc1ccccc1,Papain,"enzyme activity, inhibitor",,1 µM,inhibition,0%
